Published values gathered from unrelated publications.
Protocols differ between the studies behind these lines. Several values in a cell are separate wells, animals, samples, runs or records. Numbers after ± are the reported error.

SMILES	assay	system	conditions	AUC(0-tau)
C#C[C@]1(O)CC[C@H]2[C@@H]3CCc4cc(O)ccc4[C@H]3CC[C@@]21C	–	HIV-positive women, serum	oral, 30 µg, 24 h after last dose, control arm, steady state	1.85 ± 0.433 ng·h/mL
Nc1cc(F)ccc1NC(=O)c1ccc(CNC(=O)/C=C/c2cccnc2)cc1	–	Japanese patients, plasma	oral, 40 mg twice weekly, cycle 1 day 25	6010 ng·h/mL
C=C(C)[C@@H]1CC[C@]2(NCCN3CCS(=O)(=O)CC3)CC[C@]3(C)[C@H](CC[C@@H]4[C@@]5(C)CC=C(C6=CC[C@@](CF)(C(=O)O)CC6)C(C)(C)[C@@H]5CC[C@]43C)[C@@H]12	LC-MS/MS	HIV-1-infected treatment-naive adults, plasma	oral, 40 mg once daily, day 7, monotherapy	7460 ng·h/mL
Cc1ccc(NC(=O)c2ccc(CN3CCN(C)CC3)cc2)cc1Nc1nccc(-c2cncc(-c3oncc3C)c2)n1	–	Parkinson's disease patients, plasma	oral, 50.0 mg once daily, day 1, 7-day dosing, mean	19300 ng·h/mL
CC(C)c1nc(CN(C)C(=O)N[C@H](C(=O)N[C@@H](Cc2ccccc2)C[C@H](O)[C@H](Cc2ccccc2)NC(=O)OCc2cncs2)C(C)C)cs1	–	human, plasma	oral, 100 mg twice daily, day 14, added: saquinavir 1000 mg twice daily	5510 ng·h/mL
Cc1cc(Nc2ncc(Cl)c(Nc3ccccc3S(=O)(=O)C(C)C)n2)c(OC(C)C)cc1C1CCNCC1	–	human, plasma	oral, 750 mg/day, after dose 9	24.6 µM·h and 45.1 µM·h and 20.1 µM·h
C[C@@H](N)c1cc(Cl)ccc1Cn1c(=S)[nH]c(=O)c2[nH]ccc21	–	healthy Japanese volunteers, plasma	oral, 10 mg once daily, day 1, geometric mean	0.416 µM·h
C[C@]12C=CC(=O)C=C1CC[C@@H]1[C@@H]2[C@@H](O)C[C@@]2(C)[C@H]1C[C@H]1O[C@@H](C3CCCCC3)O[C@]12C(=O)CO	–	children with asthma, serum	inhaled, 160 µg ciclesonide, day 7, geometric LS mean, per-protocol, no spacer	0.475 ng·h/mL
C[C@H]1CN(C(=O)CC#N)[C@]12CCN(c1ncnc3[nH]ccc13)C2	–	atopic dermatitis patients, plasma	topical, 5 g of 3% ointment twice daily, day 7	25.2 ± 11.3 ng·h/mL

Excerpt of the above:
SMILES	assay	system	conditions	AUC(0-tau)
C[C@H]1CN(C(=O)CC#N)[C@]12CCN(c1ncnc3[nH]ccc13)C2	–	atopic dermatitis patients, plasma	topical, 5 g of 3% ointment twice daily, day 7	25.2 ± 11.3 ng·h/mL
Nc1cc(F)ccc1NC(=O)c1ccc(CNC(=O)/C=C/c2cccnc2)cc1	–	Japanese patients, plasma	oral, 40 mg twice weekly, cycle 1 day 25	6010 ng·h/mL
